Experimental data collected from several papers.
Protocols differ between the studies behind these lines. Several values in a cell are separate wells, animals, samples, runs or records. ± marks the error that the study gave.
4'-phosphopantetheinyl transferase PptT: 4'-phosphopantetheinyl transferase PptT (Mycobacterium tuberculosis, UniProt O33336)
USP14: Ubiquitin carboxyl-terminal hydrolase 14 (USP14, Homo sapiens, UniProt P54578)
dppA: dppA (Mycobacterium tuberculosis, UniProt I6X811)

Compound	target or system	assay	test system	setting	how to read	measurement	value
C#CCN(Cc1ccc2nc(C)[nH]c(=O)c2c1)c1ccc(C(=O)NC(CCC(=O)O)C(=O)O)c(N)c1 (stereo not drawn)	4'-phosphopantetheinyl transferase PptT	enzyme activity, inhibitor, fluorescence polarisation				Hill slope	0.9
CC[C@H](C)[C@H](NC(=O)[C@H](CO)NC(=O)[C@H](Cc1ccc(O)cc1)NC(=O)[C@H](Cc1ccc(O)cc1)NC(=O)[C@H](CC(N)=O)NC(=O)CNC(=O)[C@H](CO)NC(=O)[C@H](Cc1ccc(O)cc1)NC(=O)[C@H](CO)NC(=O)[C@H](CO)NC(=O)[C@H](CC(N)=O)NC(=O)COCCOCCNC(=O)CN1CCN(CC(=O)O)CCN(CC(=O)O)CCN(CC(=O)O)CC1)C(=O)N[C@@H](CC(C)C)C(N)=O [copper-64 labelled]		dynamic PET	KPC mouse Ptf1a-CreER tdTomato, pancreas	intravenous, 4.6 MBq/mouse, 0.4 min, 84 d after tamoxifen		tissue uptake	11.9 %ID/mL
CC(C)CC(C(=O)N1CC2(CC1C#N)C(=O)Nc1ccccc12)N(C)C(=O)c1cc2c(F)cc(F)c(F)c2[nH]1 (stereo not drawn)	Caspase-2 (Homo sapiens, UniProt P42575)					Hill slope	-0.21
CC(C)(C)C(=O)OCOP(=O)(OCOC(=O)C(C)(C)C)C1CCCN(O)C1=O (stereo not drawn)	NCI-H23					log GI50	-6.25 log M
COc1ccccc1-c1n[nH]c2nc(NC3CCN(C(=O)Cc4ccc(F)cc4F)CC3)ncc12		bead binding, competition bead pull-down, measured: LINJ.36.2140	Leishmania donovani extract	10 µM	relative to: vehicle	relative abundance	0.99
O=C1NC(=O)C(C2(O)C(=O)c3ccccc3C2=O)C(=O)N1	USP14	enzyme activity, inhibitor		17 µM		inhibition	64%
N=C(N)NCCC[C@@H]1NC(=O)[C@H](CCCCNC(=O)CCC(NC(=S)Nc2ccc(CC3CN(CC(=O)O)CCN(CC(=O)O)CCN(CC(=O)O)CCN3CC(=O)O)cc2)C(=O)NCCCC[C@@H]2NC(=O)[C@@H](Cc3ccc(O)cc3)NC(=O)[C@H](CC(=O)O)NC(=O)CNC(=O)[C@H](CCCNC(=N)N)NC2=O)NC(=O)[C@@H](Cc2ccc(O)cc2)NC(=O)[C@H](CC(=O)O)NC(=O)CNC1=O (stereo partly drawn) [scandium-44 labelled]		ex vivo γ-counting	female athymic nude mice, U-87 MG xenograft, stomach	intravenous, 4 h, added: cRGD 50 mg/kg blocking		tissue uptake	0.042 ± 0.01 %ID/g
Cc1ccc2c(C(C[N+](=O)[O-])c3cccs3)c(-c3ccccc3)[nH]c2c1 (stereo not drawn)	CNR1 (Homo sapiens, UniProt P21554, V249A)	β-arrestin2 recruitment, NanoBiT			relative to: wild type	efficacy ratio	~2.2 fold
CC(C)[C@H](N)C(=O)N[C@H](C(=O)N[C@H](C(=O)O)C(C)C)C(C)C	dppA					delta Tm	≥ 2 °C
CCN(Cc1ccc2nc(C)[nH]c(=O)c2c1)c1cnc(C(=O)NC(CCC(=O)O)C(=O)O)s1 (stereo not drawn)	4'-phosphopantetheinyl transferase PptT	enzyme activity, inhibitor, fluorescence polarisation				Hill slope	1.2
Cc1sc2c(c1C)C(c1ccc(Cl)cc1)=NC(CC(=O)OC(C)(C)C)c1nnc(C)n1-2 (stereo not drawn)	HTR2B (Homo sapiens, UniProt P41595)	ligand displacement, radioligand		1 µM		remaining binding	101%
Cc1cc(C(=O)Nc2nc3cccc(C)c3n2[C@H]2CCCCN(C(=O)/C=C/CN(C)C)C2)ccn1	Trypanosoma brucei	propidium iodide flow cytometry, measured: Multi phase	bloodstream CLK1 over-expression induced	concentration not given		cell cycle distribution	12.2% and 17.1% and 9.2%
COc1ccccc1C(C[N+](=O)[O-])c1c(-c2ccccc2)[nH]c2ccccc12 (stereo not drawn)	CNR1 (Homo sapiens, UniProt P21554, L387A)	Gαi1-γ2 dissociation, BRET				Emax	59.5 ± 3.43%
CC(C)C[C@H](NC(=O)[C@H](CC(C)C)NC(=O)[C@@H](N)CC(C)C)C(=O)O	dppA			pH 7.4		kon	8.97 ± 7000 M⁻¹ s⁻¹
N[C@@H](CCC(=O)N[C@@H](CS[Se]Cc1ccc(C(=O)Nc2cc(C(F)(F)F)c(Br)c(C(F)(F)F)c2)cc1)C(=O)NCC(=O)O)C(=O)O	Low molecular weight protein-tyrosine phosphatase A (Mycobacterium tuberculosis, UniProt P9WIA1)	enzyme activity, inhibitor				kinact/KI	360000 M⁻¹ s⁻¹
O=C1NC(=S)NC(=O)C1=C/C=C/c1ccco1	USP14	enzyme activity, inhibitor		17 µM		inhibition	36%
C#CCN(Cc1ccc2nc(C)[nH]c(=O)c2c1)c1ccc(C(=O)NC(CCC(=O)O)C(=O)O)c(Cl)c1 (stereo not drawn)	4'-phosphopantetheinyl transferase PptT	enzyme activity, inhibitor, fluorescence polarisation				Hill slope	1.2
CS(C)(=O)=Nc1ccc(-c2ccc(-c3nc4cc(O[C@@H]5CO[C@H]6[C@@H]5OC[C@H]6O)[nH]c4cc3F)cc2)cc1	FLT3 (Homo sapiens, UniProt P36888)	enzyme activity, inhibitor		10 µM		inhibition	-12%
O=[N+]([O-])CC(c1ccco1)c1c(-c2ccccc2)[nH]c2ccccc12 (stereo not drawn)	CNR1 (Homo sapiens, UniProt P21554)	G protein activation, agonist, BRET				Emax	25.9%
Cc1nc2ccc(CN(C)c3ccc(C(=O)NC(C(=O)O)C(C)CC(=O)O)cc3)cc2c(=O)[nH]1 (stereo not drawn)	4'-phosphopantetheinyl transferase PptT	enzyme activity, inhibitor, fluorescence polarisation				Hill slope	1.2

Compound	target or system	assay	test system	setting	how to read	measurement	value
O=C1NC(=O)c2c1c1cc(F)c[n+]3c1c1c2c2cc(O)ccc2[n]1[Ru-4]312([N]=C=S)[S+]3CC[S+]1CC[S+]2CC3 (stereo not drawn)	STK3 (Homo sapiens, UniProt Q13188)	enzyme activity		100 nM, human enzyme, added: 10 µM ATP	relative to: untreated	remaining activity	6%
CN(C)[C@H]1C[C@@]23CC[C@@]4(O2)C(=CC[C@]2(C)[C@@H](c5ccc6ccncc6c5)CC[C@H]24)C=C3[C@@H](O)[C@@H]1O	MAP4K2 (Homo sapiens, UniProt Q12851)	ATP probe labelling, inhibitor, KiNativ profiling		0.1 µM		inhibition	8.4%
C#CCN(Cc1ccc2nc(C)[nH]c(=O)c2c1)c1cc(F)c(C(=O)N[C@H](CCC(=O)O)C(=O)O)c(F)c1	4'-phosphopantetheinyl transferase PptT	enzyme activity, inhibitor, fluorescence polarisation				Hill slope	1.2
CCCCCn1cc(C(=O)c2ccc3c(c2)CC(C)(C)C3)c2ccccc21	CNR1 (Homo sapiens, UniProt P21554, F174A)	Gαi1 engagement, agonist, BRET			relative to: reference agonist at wild-type CB1	Emax	43.1 ± 4.2%
C[C@H](N)C(=O)N[C@@H](C)C(=O)N[C@@H](C)C(=O)O	dppA			pH 7.4		kon	1.16 ± 20000 M⁻¹ s⁻¹
O=C1NC2(CC2)COc2ncc(F)cc2[C@H]2COCCN2c2ccn3ncc1c3n2			Sprague-Dawley rat, male, plasma	oral, 2.5 mg/kg/day, end of recovery, 4-week repeated-dose toxicity		prothrombin time	8.8 ± 0.3 s
C#CCN(Cc1ccc2nc(C)[nH]c(=O)c2c1)c1ccc(C(=O)N[C@@H](CSCCC(=O)O)C(=O)O)cc1	4'-phosphopantetheinyl transferase PptT	enzyme activity, inhibitor, fluorescence polarisation				Hill slope	1.5
CCN(CC)C(=O)[C@@H]1C=C2c3cccc4c3c(cn4C(=O)c3ccco3)C[C@H]2N(C)C1	ADRA1B (Homo sapiens, UniProt P35368)	radioligand binding		10 µM		inhibition	< 50%
COc1ccc2nccc(CC[C@H]3OC[C@H](NC(=O)c4ccc(Cl)cc4)CO3)c2c1	DNA gyrase subunit A, with GyrB (Mycobacterium tuberculosis, UniProt P9WG47)	DNA cleavage		concentration not given, 10 min, 37 °C, added: gyrase 100 nM		maximal single-stranded DNA breaks	~3%
COc1ccccc1-c1n[nH]c2nc(N[C@H]3CC[C@H](NS(=O)(=O)CC(C)C)CC3)ncc12		bead binding, competition bead pull-down, measured: LINJ.26.2250	Leishmania donovani extract	10 µM	relative to: vehicle	relative abundance	1.13
O=C(O)c1cnn(-c2ccccc2)c1OCCCCc1c[nH]c2ccccc12	Phosphopantetheine adenylyltransferase (coaD, Mycobacterium tuberculosis, UniProt P9WPA5)	ITC		concentration not given	ligand per protomer	binding stoichiometry	0.5
CC(C)[C@H](N)C(=O)N[C@H](C(=O)N[C@@H](CCCCN)C(=O)O)C(C)C	dppA			pH 7.4		kon	3.1 ± 2000 M⁻¹ s⁻¹
CC[C@H](C)[C@@H]1NC(=O)CNC(=O)[C@@H]2Cc3c([nH]c4cc(O)ccc34)[S@+]([O-])C[C@H](NC(=O)CNC1=O)C(=O)N[C@@H](CC(N)=O)C(=O)N1C[C@H](O)C[C@H]1C(=O)N[C@@H]([C@@H](C)[C@@H](O)CO)C(=O)N2	DNA-directed RNA polymerase II subunit RPB1 (Homo sapiens, UniProt P24928)		HeLa nuclear extract	3.0 nM, 60 min		transcription activity	69 ± 9%
CC(C)[C@H]1NC(=O)C[C@H]2/C=C/CCSSC[C@@H](NC1=O)C(=O)N[C@H](Cc1cccc3ccccc13)C(=O)NCC(=O)O2	DAPK1 (Homo sapiens, UniProt P53355)	enzyme activity, inhibitor		10 µM		inhibition	0.8%
C#CCN(Cc1ccc2nc(C)[nH]c(=O)c2c1)c1ccc(C(=O)NC(CCC(=O)O)C(=O)O)cc1 (stereo not drawn)	4'-phosphopantetheinyl transferase PptT	enzyme activity, inhibitor, fluorescence polarisation				Hill slope	1.3
N[C@H](C(=O)N1CCCC1)C1CCN(c2nccc3c(-c4ncc(Cl)cc4Cl)cccc23)CC1	L-type calcium channel verapamil site	binding, radioligand binding		10 µM		inhibition	-5%
CCCCCn1cc(C(=O)c2cccc3c2CC(C)(C)C3)c2ccccc21	CNR1 (Homo sapiens, UniProt P21554, F170A)	Gαi1 engagement, agonist, BRET			relative to: reference agonist at wild-type CB1	Emax	48.7 ± 3.8%
CC(C)[C@H](N)C(=O)N[C@@H](CCCCN)C(=O)N[C@H](C(=O)O)C(C)C	dppA			pH 7.4		kon	7.49 ± 8000 M⁻¹ s⁻¹
Nc1ccc(/C=C/C(=O)N2CCc3c(oc4c(-c5ccc(F)cc5)cc(-c5ccc(C(=O)N6CCC(F)(F)CC6)cn5)cc34)C2)cn1	DYRK1B (Homo sapiens, UniProt Q9Y463)	binding, competition with immobilised ligand		1 µM		remaining binding	85%

Some of these lines once more:
Compound	target or system	assay	test system	setting	how to read	measurement	value
COc1ccccc1-c1n[nH]c2nc(NC3CCN(C(=O)Cc4ccc(F)cc4F)CC3)ncc12		bead binding, competition bead pull-down, measured: LINJ.36.2140	Leishmania donovani extract	10 µM	relative to: vehicle	relative abundance	0.99
O=C1NC(=O)C(C2(O)C(=O)c3ccccc3C2=O)C(=O)N1	USP14	enzyme activity, inhibitor		17 µM		inhibition	64%
N=C(N)NCCC[C@@H]1NC(=O)[C@H](CCCCNC(=O)CCC(NC(=S)Nc2ccc(CC3CN(CC(=O)O)CCN(CC(=O)O)CCN(CC(=O)O)CCN3CC(=O)O)cc2)C(=O)NCCCC[C@@H]2NC(=O)[C@@H](Cc3ccc(O)cc3)NC(=O)[C@H](CC(=O)O)NC(=O)CNC(=O)[C@H](CCCNC(=N)N)NC2=O)NC(=O)[C@@H](Cc2ccc(O)cc2)NC(=O)[C@H](CC(=O)O)NC(=O)CNC1=O (stereo partly drawn) [scandium-44 labelled]		ex vivo γ-counting	female athymic nude mice, U-87 MG xenograft, stomach	intravenous, 4 h, added: cRGD 50 mg/kg blocking		tissue uptake	0.042 ± 0.01 %ID/g
Cc1ccc2c(C(C[N+](=O)[O-])c3cccs3)c(-c3ccccc3)[nH]c2c1 (stereo not drawn)	CNR1 (Homo sapiens, UniProt P21554, V249A)	β-arrestin2 recruitment, NanoBiT			relative to: wild type	efficacy ratio	~2.2 fold
